Assay results from different studies.
Lines come from different studies, so protocols differ. Numbers after ± are the reported error.
Medium: plasma

CN1CCN(c2ccc(Nc3ncc(Cl)c(Nc4ccccc4P(C)(C)=O)n3)cc2Br)CC1 — AUC(0-t) (male Sprague-Dawley rat; oral, 25 mg/kg): 2930 ng·h/mL
COc1ccnc(C[S+]([O-])c2nc3cc(-n4cccc4)ccc3[nH]2)c1C (stereo not drawn) — AUC(0-t) ratio (male Sprague Dawley rats; oral, 1 mg/kg ilaprazole racemate; reference: compound over R-ilaprazole): 2.44
C[Si]1(C)CNC(=O)c2ccccc21 — AUC(0-t) (Sprague-Dawley rat, male; intravenous, 1 mg/kg): 556 ± 97 ng·h/mL
N=C(N)NCCC[C@H](NC(=O)[C@@H]1CCCN1C(=O)[C@H](Cc1ccccc1)NC(=O)[C@@H]1CCCN1C(=O)[C@H](Cc1c[nH]cn1)NC(=O)[C@@H](N)Cc1ccccc1)C(=O)O — AUC(0-t) (Sprague-Dawley rat male; oral gavage, 50 mg/kg, 150 min): 94.1 ± 30.9 ng·h/mL
Cn1cc(C(N)=O)c(NC2C3CC4CC2CC(O)(C4)C3)c2ccnc1-2 (stereo not drawn) — AUC(0-t) (Japanese adults, moderate hepatic impairment; oral, 150 mg single dose): 1330 ng·h/mL
Cc1cc(O)c2c(c1)C(=O)c1cc(O)cc(O)c1C2=O.Cc1cc(O)c2c(c1)C(=O)c1cc(O)cc(O)c1C2=O.Cc1nc(C)c(C)nc1C — AUC(0-t) (Sprague Dawley rat; oral, 100 mg/kg): 5120 ± 2400 ng·h/mL
C=C(c1ncc(C(=O)O)cn1)c1cc2c(cc1C)C(C)(C)CCC2(C)C — AUC(0-t) (rat Sprague-Dawley male; oral, 100 mg/kg, sesame oil): 83300 ng·h/mL
COC(=O)/C=C/C(=O)c1ccc(OC)cc1 — AUC(0-t) (Sprague-Dawley rat, both sexes; oral, 100 mg/kg): 1140 ± 168 ng·h/mL
CC(C)CNC(=O)/C=C/CCc1ccc2c(c1)OCO2 — AUC(0-t) (rat, sham-operated; oral, 50 mg/kg): 112 ± 45.5 ng·h/mL
C=C(c1cc(F)c(C(=O)O)c(F)c1)c1cc2c(cc1C)C(C)(C)CCC2(C)C — AUC(0-t) (rat Sprague-Dawley male; oral, 100 mg/kg, sesame oil): 20500 ng·h/mL
CCCCCCCOc1ccc(CC[C@](N)(CO)COP(=O)(O)O)cc1C(F)(F)F — AUC(0-t) (rat Sprague-Dawley male; oral, 1 mg/kg): 525 ng·h/mL
Cn1cc(C(N)=O)c(NC2C3CC4CC2CC(OS(=O)(=O)O)(C4)C3)c2ccnc1-2 (stereo not drawn) — AUC(0-t) (Japanese adults, moderate hepatic impairment; oral, 150 mg single dose): 1130 ng·h/mL
